Assay results of several laboratories.
Lines come from different studies, so protocols differ. “And” joins repeats or separate records; there may be more than shown. Numbers after ± are the reported error.
Nuclear receptor subfamily 2 group C member 2 ligand-binding domain: Nuclear receptor subfamily 2 group C member 2, ligand-binding domain (Homo sapiens, UniProt P49116)
UniProt P27361, sequence (whole entry, looked up): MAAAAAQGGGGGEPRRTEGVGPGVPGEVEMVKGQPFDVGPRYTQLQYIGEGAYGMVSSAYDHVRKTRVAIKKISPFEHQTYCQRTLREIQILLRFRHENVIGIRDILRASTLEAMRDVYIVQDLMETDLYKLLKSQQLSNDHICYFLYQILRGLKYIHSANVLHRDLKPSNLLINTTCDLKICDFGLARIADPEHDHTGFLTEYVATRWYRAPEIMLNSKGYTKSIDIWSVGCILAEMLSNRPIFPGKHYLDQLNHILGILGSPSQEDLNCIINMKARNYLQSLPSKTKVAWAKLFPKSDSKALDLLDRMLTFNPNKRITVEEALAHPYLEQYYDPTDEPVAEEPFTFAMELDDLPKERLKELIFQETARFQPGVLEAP
UniProt P49116, sequence (whole entry, looked up): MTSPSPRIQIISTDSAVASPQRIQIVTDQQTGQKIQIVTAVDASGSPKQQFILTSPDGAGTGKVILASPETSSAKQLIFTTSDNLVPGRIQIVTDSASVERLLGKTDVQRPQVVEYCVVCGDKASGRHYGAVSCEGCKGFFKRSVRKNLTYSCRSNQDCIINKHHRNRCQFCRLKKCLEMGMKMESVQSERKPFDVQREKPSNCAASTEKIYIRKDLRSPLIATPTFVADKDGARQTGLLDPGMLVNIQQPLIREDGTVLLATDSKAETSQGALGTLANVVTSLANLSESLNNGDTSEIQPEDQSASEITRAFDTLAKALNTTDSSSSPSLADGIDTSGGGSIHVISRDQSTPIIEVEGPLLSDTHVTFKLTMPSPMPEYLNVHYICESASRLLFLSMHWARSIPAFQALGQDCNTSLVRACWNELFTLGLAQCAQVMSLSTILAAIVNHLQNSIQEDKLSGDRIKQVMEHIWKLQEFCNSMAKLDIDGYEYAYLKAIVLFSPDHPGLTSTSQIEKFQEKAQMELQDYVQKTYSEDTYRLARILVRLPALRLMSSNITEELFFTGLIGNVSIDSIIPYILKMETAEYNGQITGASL
UniProt P11388, sequence (whole entry, looked up): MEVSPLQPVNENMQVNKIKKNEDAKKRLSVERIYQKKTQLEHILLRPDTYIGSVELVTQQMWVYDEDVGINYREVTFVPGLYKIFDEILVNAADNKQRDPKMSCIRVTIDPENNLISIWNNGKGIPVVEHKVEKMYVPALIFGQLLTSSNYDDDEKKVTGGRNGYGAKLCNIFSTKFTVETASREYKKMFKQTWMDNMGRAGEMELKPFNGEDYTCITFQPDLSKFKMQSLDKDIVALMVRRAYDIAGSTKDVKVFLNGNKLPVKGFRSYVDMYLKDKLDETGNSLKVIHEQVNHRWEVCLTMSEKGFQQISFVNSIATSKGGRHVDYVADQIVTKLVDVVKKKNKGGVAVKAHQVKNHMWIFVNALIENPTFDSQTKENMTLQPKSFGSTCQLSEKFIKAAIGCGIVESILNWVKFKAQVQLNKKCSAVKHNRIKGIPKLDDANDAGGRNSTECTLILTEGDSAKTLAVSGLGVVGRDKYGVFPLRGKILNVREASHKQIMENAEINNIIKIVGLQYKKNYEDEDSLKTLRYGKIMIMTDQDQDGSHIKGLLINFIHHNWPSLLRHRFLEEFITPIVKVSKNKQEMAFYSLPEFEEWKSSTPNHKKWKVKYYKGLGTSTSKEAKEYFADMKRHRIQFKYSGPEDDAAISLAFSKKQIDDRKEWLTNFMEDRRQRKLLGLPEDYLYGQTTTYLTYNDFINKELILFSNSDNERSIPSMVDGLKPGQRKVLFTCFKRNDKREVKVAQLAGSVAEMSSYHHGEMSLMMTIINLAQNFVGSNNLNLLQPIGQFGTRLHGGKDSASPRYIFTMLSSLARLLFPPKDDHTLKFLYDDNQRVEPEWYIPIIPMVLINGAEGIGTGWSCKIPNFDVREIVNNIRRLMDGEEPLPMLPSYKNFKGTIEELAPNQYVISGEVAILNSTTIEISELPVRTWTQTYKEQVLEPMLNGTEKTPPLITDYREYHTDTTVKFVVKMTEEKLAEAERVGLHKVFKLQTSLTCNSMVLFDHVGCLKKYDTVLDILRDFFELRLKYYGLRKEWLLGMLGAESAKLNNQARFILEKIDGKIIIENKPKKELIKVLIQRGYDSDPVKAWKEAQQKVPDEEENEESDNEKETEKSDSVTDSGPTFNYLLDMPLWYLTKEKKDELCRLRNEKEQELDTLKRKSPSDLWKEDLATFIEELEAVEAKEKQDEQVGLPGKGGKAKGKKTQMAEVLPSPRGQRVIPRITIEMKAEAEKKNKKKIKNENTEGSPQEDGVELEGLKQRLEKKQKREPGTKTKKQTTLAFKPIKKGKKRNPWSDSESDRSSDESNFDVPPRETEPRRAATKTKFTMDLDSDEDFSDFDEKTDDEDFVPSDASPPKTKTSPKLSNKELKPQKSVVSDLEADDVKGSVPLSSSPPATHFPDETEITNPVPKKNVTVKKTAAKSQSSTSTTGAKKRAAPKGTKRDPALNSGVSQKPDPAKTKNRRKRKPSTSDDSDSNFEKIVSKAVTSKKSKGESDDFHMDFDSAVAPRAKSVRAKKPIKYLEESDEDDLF
UniProt Q5AP53, sequence (whole entry, looked up): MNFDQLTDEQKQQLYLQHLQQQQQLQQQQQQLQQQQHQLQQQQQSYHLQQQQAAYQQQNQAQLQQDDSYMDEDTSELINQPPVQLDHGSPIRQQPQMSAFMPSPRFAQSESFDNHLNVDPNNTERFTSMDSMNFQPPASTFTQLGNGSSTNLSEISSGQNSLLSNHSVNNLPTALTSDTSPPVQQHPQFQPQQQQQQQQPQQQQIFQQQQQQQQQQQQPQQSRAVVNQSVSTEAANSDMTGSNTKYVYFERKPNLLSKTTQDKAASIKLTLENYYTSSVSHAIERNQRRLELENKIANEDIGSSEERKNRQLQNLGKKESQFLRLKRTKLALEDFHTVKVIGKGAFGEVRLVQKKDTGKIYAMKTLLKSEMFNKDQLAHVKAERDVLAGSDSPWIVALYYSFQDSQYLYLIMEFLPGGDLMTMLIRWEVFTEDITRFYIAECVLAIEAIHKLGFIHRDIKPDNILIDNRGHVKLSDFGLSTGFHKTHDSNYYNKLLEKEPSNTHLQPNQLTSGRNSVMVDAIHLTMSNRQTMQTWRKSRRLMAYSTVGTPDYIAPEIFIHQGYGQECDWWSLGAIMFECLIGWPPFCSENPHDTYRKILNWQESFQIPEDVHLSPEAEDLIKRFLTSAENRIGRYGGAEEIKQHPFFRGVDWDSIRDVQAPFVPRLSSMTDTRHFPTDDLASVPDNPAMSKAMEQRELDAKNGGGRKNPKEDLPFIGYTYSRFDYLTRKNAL
UniProt Q695T7, sequence (whole entry, looked up): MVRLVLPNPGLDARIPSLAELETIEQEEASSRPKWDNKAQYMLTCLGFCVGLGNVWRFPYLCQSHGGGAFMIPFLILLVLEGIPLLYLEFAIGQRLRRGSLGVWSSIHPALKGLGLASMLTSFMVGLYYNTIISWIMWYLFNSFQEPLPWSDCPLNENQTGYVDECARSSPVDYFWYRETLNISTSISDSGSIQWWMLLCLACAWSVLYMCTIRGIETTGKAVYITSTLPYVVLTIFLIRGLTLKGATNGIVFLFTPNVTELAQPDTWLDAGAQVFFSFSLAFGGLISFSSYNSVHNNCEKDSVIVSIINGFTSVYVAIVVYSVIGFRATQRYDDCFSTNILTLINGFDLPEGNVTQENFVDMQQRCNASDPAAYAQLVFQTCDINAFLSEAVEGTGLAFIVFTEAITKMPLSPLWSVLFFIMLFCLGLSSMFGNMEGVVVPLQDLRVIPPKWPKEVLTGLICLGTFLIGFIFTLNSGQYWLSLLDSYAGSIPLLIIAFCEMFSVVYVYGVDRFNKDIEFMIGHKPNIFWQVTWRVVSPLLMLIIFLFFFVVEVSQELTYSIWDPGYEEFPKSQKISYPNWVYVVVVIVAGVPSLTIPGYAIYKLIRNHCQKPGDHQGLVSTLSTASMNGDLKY
UniProt Q16774, sequence (whole entry, unmodified, looked up): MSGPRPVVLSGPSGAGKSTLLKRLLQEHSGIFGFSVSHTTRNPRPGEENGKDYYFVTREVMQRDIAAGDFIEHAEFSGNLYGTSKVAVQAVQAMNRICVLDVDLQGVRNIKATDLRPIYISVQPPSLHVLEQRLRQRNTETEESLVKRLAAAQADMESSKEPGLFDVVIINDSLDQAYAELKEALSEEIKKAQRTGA
UniProt O00238, sequence (whole entry, looked up): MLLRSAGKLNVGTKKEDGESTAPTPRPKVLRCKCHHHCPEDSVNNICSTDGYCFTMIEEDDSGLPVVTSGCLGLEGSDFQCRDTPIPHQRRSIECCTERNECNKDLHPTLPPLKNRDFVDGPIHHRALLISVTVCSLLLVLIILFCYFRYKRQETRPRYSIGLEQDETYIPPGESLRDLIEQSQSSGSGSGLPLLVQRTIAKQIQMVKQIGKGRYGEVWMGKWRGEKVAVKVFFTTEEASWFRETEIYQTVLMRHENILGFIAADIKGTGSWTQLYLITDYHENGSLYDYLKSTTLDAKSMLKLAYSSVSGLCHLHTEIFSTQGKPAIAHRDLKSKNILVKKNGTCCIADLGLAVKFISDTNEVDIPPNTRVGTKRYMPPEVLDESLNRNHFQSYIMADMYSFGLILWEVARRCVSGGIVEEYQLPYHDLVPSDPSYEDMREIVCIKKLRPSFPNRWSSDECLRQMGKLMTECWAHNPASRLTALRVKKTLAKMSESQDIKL
UniProt Q8NEZ5, sequence (whole entry, looked up): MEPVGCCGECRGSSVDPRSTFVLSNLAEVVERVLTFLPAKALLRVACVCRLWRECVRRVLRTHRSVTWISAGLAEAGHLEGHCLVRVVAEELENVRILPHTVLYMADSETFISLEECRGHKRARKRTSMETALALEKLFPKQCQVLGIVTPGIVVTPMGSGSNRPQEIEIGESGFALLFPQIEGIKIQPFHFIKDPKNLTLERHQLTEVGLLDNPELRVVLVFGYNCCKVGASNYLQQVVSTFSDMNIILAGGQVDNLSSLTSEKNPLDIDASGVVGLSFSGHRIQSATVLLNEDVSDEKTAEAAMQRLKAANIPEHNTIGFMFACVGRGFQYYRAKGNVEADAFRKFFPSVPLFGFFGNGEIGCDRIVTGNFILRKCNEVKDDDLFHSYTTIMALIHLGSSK

C[S+](CC[C@H](N)C(=O)[O-])C[C@H]1O[C@@H](n2cnc3c(N)ncnc32)[C@H](O)[C@@H]1O (stereo partly shown)
apparent Km (KMT2C (Homo sapiens, UniProt Q8NEZ4); substrate, enzyme-coupled methylation; with: H3 peptide 800 µM): 20.9 ± 1.8 µM

CC(=O)NCCCC[C@H](NC(=O)CNC(=O)CNC(=O)[C@H](CCCCNC(C)=O)NC(=O)CNC(=O)[C@H](CCCNC(=N)N)NC(=O)CNC(=O)[C@@H](N)CO)C(=O)NCC(=O)N[C@@H](CC(C)C)C(=O)NCC(N)=O
ΔG (BRD1 (Homo sapiens, UniProt O95696, R585F); binding, ITC; 15 °C, with: peptide 2 mM): -5.22 kcal/mol

CCn1c2c(c(=O)[nH]c1=O)C1C(=C(C)N2)C(=O)NCc2ccccc2OCCCOc2ccccc21 (stereo not shown)
binding affinity (Bromodomain testis-specific protein, BD1 (BRDT, Homo sapiens, UniProt Q58F21); fluorescence polarization; concentration not given): inactive

O=c1nc(SCc2ccc(C(F)(F)F)cc2)nc(SCc2csc3ccc(Cl)cc23)[nH]1
relaxed DNA (TOP2A (Homo sapiens, UniProt P11388); DNA relaxation; 7.8 µM, replicate 1): 60.8%

c1coc(-c2n[nH]cc2-c2ccnc3ccccc23)c1
log2 fold change (Serine/threonine-protein kinase CBK1 (CBK1, Candida albicans, UniProt Q5AP53); kinase binding, MIB/MS competition; Candida albicans lysate; 1 µM; relative to: DMSO, negative = stronger binding): -0.14

Nc1ncnc2c1ncn2[C@@H]1O[C@H](COP(=O)(O)OP(=O)(O)OP(=O)(O)O)[C@@H](O)[C@H]1O
kcat (GUK1 (Homo sapiens, UniProt Q16774, S13A); enzyme activity, substrate, NADH-coupled): 24.1 s⁻¹

CCCCC[S+]([O-])c1n[nH]c(N)n1 (stereo not shown)
fold enrichment (F-box only protein 22, with SKP1 (Homo sapiens, UniProt Q8NEZ5); binding, affinity selection mass spectrometry; relative to: other proteins in batch): 0.76

Nc1[nH]nc2nnc(-c3c(-c4ccccc4)nn4ccccc34)cc12
kinase activity (MAPK3 (Homo sapiens, UniProt P27361); ADP-Glo; 29 nM, with: MBP substrate): 83.2% and 62.2% and 115%

C=CC(=O)N1CCC(COCC(=O)N2CCN(c3nc(-c4cnc(N)nc4C(F)F)nc(N4CCOC[C@@H]4C)n3)CC2)CC1
remaining binding (BMPR1B (Homo sapiens, UniProt O00238); KINOMEscan; 1 µM): 89%

COCCOC(=O)C1=C(C)NC(C)=C(C(=O)OC(C)C)C1c1cccc([N+](=O)[O-])c1 (stereo not shown)
koff (Nuclear receptor subfamily 2 group C member 2 ligand-binding domain; SPR imaging; 600 nM): 1.48e-06 s⁻¹

CNCCCC[C@H](NC(=O)[C@@H](NC(=O)[C@H](CCCNC(=N)N)NC(=O)[C@H](C)N)[C@@H](C)O)C(=O)N[C@@H](CCC(N)=O)C(=O)N[C@H](C(=O)N[C@@H](C)C(=O)N[C@@H](CCCNC(=N)N)C(=O)N[C@@H](CCCCN)C(=O)N[C@@H](CO)C(=O)N[C@H](C(=O)NCC(=O)NCC(=O)N[C@@H](CCCCN)C(=O)N[C@@H](C)C(=O)N[C@@H](Cc1ccc(O)cc1)C(=O)O)[C@@H](C)O)[C@@H](C)O
binding entropy (Transcriptional regulator ATRX (ATRX, Homo sapiens, UniProt P46100, F284Y/K251R); isothermal titration calorimetry; concentration not given, pH 7.5, 25.0 °C): 1.56 cal/mol/K

CN(C)CCCOc1nn(Cc2ccccc2)c2ccccc12
koff (Nuclear receptor subfamily 2 group C member 2 ligand-binding domain; SPR imaging; 600 nM): 2.4e-05 s⁻¹

CCNC(=O)/C=C/c1cccc(Br)c1
remaining transport activity (SLC6A19 (Homo sapiens, UniProt Q695T7); inhibitor, L-[14C]leucine uptake; CHO-BC cells; 1 µM, 6 min, unit not given, with: GPNA 3 mM, JPH203 3 µM; relative to: uninhibited cells): 0.474

CCCC[C@H]1CN(c2cccc(OC(F)(F)F)c2)C(=O)CN1Cc1cncn1Cc1ccc(Br)cc1
IC50 (Cryptococcus neoformans farnesyltransferase; enzyme activity, inhibitor, fluorescence; with: 1 µM FPP, 0.5 µM dansylated peptide): 190 ± 60 nM

Nc1ncnc2c1ncn2[C@@H]1O[C@H](CSCC[C@H](N)C(=O)O)[C@@H](O)[C@H]1O
ΔH of binding (O-methyltransferase (Sorghum bicolor, UniProt A0A1B6PFV1); concentration not given, with: PTR+): -5.59 ± 0.14 kcal/mol

CC[C@H](C)[C@@H]1NC(=O)[C@H](C)NC(=O)[C@H]([C@@H](C)CC)NC(=O)[C@H](CCC(N)=O)NC(=O)[C@H](C)NC(=O)[C@H](CCCNC(=N)N)NC(=O)[C@H](C(C)C)NC(=O)[C@H](CC(C)C)NC(=O)[C@H](CCC(=O)O)NC(=O)[C@H](CCCNC(=N)N)NC(=O)CNC(=O)[C@@H](NC(=O)[C@H](CC(C)C)NC(=O)[C@H](CCCCN)NC(=O)[C@@H](NC(=O)[C@@H](NC(=O)[C@H](CCC(=O)O)NC(=O)[C@H](CCC(=O)O)NC(=O)[C@H](CCSC)NC(=O)[C@H](Cc2c[nH]c3ccccc23)NC(=O)[C@H](CO)NC(=O)[C@@H](N)CC(=O)O)C(C)C)[C@@H](C)CC)CSSC[C@@H]2NC(=O)[C@@H](NC(=O)[C@H](CCCCN)NC(=O)[C@H](CC(N)=O)NC(=O)[C@H](C)NC(=O)[C@H](CC(C)C)NC(=O)[C@H](C)NC(=O)[C@H](CO)NC(=O)[C@H](Cc3ccc(O)cc3)NC(=O)[C@H](CC(C)C)NC(=O)[C@H](CCC(N)=O)NC(=O)c3ccc(-c4c5ccc(=[N+](C)C)cc-5oc5cc(N(C)C)ccc45)c(C(=O)[O-])c3)CSSC[C@H](NC(=O)CNC(=O)[C@H](C(C)C)NC(=O)[C@H](Cc3c[nH]cn3)NC2=O)C(=O)N[C@@H]([C@@H](C)O)C(=O)N[C@@H](CCCCN)C(=O)N[C@@H](CCCNC(=N)N)C(=O)N[C@@H](CO)C(=O)N[C@@H](CC(C)C)C(=O)N[C@@H](C)C(=O)N[C@@H](CCCNC(=N)N)C(=O)N[C@@H](Cc2ccccc2)C(=O)N[C@H](C(=O)O)CSSC[C@@H](C(=O)NCC(=O)N[C@@H](CCSC)C(=O)N[C@@H](CO)C(=O)N[C@H](C(=O)N[C@@H](Cc2c[nH]c3ccccc23)C(=O)N[C@@H](CO)C(=O)O)[C@@H](C)O)NC1=O
dissociation plateau (Relaxin receptor 1 (RXFP1, Homo sapiens, UniProt Q9HBX9); binding, NanoBRET; with: relaxin 1 µM): 23.4%

A few entries again:
O=c1nc(SCc2ccc(C(F)(F)F)cc2)nc(SCc2csc3ccc(Cl)cc23)[nH]1
relaxed DNA (TOP2A (Homo sapiens, UniProt P11388); DNA relaxation; 7.8 µM, replicate 1): 60.8%

c1coc(-c2n[nH]cc2-c2ccnc3ccccc23)c1
log2 fold change (Serine/threonine-protein kinase CBK1 (CBK1, Candida albicans, UniProt Q5AP53); kinase binding, MIB/MS competition; Candida albicans lysate; 1 µM; relative to: DMSO, negative = stronger binding): -0.14
